Measurements gathered from unrelated publications.
Each numbered part is a random draw from the data of one study; scales do not carry over between parts.
Chain of UniProt P23458 (whole entry, looked up): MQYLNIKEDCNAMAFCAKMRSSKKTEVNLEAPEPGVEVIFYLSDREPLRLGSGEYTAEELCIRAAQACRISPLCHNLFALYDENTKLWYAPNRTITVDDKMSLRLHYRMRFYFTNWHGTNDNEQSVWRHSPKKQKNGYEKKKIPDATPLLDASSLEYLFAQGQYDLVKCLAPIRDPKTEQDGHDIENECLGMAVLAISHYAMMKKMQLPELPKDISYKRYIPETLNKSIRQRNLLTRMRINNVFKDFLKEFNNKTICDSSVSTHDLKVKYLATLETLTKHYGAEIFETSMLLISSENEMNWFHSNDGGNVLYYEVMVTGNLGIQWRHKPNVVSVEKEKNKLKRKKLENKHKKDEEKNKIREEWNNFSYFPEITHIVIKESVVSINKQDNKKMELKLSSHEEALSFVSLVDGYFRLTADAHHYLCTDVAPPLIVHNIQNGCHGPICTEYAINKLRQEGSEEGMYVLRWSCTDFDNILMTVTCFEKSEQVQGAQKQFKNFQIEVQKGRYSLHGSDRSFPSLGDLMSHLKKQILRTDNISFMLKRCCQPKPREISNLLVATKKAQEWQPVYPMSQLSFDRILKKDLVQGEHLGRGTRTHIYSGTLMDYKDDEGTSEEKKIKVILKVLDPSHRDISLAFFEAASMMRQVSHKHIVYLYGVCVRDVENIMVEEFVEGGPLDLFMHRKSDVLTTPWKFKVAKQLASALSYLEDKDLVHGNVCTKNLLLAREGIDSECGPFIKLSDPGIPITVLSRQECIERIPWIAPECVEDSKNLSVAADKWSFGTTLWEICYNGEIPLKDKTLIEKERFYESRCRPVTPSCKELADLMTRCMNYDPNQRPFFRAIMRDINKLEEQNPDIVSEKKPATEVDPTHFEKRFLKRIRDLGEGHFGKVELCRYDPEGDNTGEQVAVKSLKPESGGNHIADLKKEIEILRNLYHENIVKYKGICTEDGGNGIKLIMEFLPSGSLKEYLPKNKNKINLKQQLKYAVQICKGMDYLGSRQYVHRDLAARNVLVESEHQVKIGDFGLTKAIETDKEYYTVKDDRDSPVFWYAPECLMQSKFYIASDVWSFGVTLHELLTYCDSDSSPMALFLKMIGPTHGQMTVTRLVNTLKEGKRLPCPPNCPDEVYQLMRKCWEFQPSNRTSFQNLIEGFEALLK
Chain of UniProt P48730 (whole entry, looked up): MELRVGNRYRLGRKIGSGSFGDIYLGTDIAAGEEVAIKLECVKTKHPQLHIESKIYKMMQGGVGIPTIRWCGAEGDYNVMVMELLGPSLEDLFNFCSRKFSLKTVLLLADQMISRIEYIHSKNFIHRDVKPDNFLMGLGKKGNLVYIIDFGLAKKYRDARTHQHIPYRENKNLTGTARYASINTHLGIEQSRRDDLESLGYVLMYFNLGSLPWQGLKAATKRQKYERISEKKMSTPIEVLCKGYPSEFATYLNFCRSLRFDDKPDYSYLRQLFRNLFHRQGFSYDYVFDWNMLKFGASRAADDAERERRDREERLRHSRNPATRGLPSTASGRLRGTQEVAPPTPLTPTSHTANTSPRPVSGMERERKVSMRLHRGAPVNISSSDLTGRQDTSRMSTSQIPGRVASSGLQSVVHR
Chain of UniProt P11309 (whole entry, looked up): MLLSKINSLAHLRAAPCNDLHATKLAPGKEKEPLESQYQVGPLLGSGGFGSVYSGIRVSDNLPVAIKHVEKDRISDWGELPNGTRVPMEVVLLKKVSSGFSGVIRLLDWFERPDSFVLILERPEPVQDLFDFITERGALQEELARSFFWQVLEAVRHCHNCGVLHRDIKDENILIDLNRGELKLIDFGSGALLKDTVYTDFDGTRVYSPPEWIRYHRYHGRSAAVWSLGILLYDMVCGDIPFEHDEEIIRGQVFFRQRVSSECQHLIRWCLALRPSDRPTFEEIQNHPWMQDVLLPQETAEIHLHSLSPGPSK
Chain of UniProt P43403 (whole entry, looked up): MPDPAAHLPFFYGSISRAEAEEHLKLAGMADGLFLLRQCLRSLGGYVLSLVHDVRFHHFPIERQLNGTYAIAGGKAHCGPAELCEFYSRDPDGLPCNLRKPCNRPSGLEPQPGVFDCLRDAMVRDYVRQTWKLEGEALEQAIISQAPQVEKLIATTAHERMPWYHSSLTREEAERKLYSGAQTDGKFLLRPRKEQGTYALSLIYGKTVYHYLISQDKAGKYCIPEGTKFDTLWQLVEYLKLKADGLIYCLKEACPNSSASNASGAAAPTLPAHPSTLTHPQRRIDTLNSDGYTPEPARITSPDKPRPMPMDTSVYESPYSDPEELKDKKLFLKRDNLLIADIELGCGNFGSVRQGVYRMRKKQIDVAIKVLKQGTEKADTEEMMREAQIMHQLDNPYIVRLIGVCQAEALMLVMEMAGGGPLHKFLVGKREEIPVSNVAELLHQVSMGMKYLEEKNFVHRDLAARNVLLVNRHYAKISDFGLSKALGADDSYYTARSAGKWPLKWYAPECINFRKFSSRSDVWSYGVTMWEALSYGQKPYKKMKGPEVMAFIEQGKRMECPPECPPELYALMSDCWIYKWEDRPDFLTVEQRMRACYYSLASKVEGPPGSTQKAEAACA
Chain of UniProt O95835 (whole entry, looked up): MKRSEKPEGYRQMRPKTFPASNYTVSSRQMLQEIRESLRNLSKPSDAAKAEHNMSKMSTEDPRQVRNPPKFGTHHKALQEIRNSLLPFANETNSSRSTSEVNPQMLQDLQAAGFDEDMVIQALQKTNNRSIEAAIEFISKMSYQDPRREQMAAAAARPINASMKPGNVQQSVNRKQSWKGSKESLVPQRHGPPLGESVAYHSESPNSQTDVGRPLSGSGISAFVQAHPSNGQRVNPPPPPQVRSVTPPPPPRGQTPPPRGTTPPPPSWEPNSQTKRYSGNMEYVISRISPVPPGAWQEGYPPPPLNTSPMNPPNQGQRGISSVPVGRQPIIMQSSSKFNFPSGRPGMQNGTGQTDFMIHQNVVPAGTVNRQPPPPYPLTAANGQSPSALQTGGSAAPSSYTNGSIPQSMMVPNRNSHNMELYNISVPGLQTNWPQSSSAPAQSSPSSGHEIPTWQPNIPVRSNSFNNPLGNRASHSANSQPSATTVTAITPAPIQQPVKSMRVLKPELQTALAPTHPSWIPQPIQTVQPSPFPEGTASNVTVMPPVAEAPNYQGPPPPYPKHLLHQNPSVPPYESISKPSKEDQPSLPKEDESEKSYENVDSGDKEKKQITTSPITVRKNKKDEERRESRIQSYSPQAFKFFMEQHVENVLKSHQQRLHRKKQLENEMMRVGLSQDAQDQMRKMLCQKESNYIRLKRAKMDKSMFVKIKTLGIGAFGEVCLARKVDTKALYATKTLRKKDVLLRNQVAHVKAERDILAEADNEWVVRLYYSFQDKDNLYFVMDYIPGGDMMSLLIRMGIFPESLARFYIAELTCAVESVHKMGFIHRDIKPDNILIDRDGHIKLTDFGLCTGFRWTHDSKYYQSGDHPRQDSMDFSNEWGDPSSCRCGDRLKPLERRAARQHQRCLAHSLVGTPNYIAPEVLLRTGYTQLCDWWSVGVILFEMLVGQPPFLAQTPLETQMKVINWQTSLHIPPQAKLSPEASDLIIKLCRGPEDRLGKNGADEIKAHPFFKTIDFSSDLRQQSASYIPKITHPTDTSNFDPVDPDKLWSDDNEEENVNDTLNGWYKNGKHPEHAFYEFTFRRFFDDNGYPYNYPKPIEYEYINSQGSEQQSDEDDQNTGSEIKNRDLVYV

Sample 1
Compound: C1=C/COCc2cc(ccc2OCCN2CCCC2)Nc2nccc(n2)-c2cccc(c2)COC/1
Observed: cell-free assay
Concentration: 0.1 µM
| target | remaining signal |
| --- | --- |
| Receptor-type tyrosine-protein kinase FLT3 (FLT3, Homo sapiens, UniProt P36888, F691L/ITD) | 2.2% |
| Receptor-type tyrosine-protein kinase FLT3 (FLT3, Homo sapiens, UniProt P36888, ITD) | 4.3% |
| Receptor-type tyrosine-protein kinase FLT3 (FLT3, Homo sapiens, UniProt P36888, D835V/ITD) | 0.2% |
| Tyrosine-protein kinase JAK1, JH2 (JAK1, Homo sapiens, UniProt P23458) | 30% |

Other studies, line by line
| Structure (SMILES) | target | observed | action | method | concentration | endpoint | result |
| --- | --- | --- | --- | --- | --- | --- | --- |
| C=CC(=O)N1CCC(COCC(=O)N2CCN(c3nc(-c4cnc(N)nc4C(F)F)nc(N4CCOC[C@@H]4C)n3)CC2)CC1 | Serine/threonine-protein kinase LATS1 (LATS1, Homo sapiens, UniProt O95835) | binding |  | competition with immobilised ligand | 1 µM | remaining binding | 96% |
| CNc1ncc2c(/C=C/C(=O)N3CCC(OC)CC3)nn(Cc3cccc(C(F)(F)F)c3)c2n1 | Serine/threonine-protein kinase pim-1 (PIM1, Homo sapiens, UniProt P11309) | enzyme activity | inhibitor | radiometric | 1 µM | remaining activity | 105% |
| Cc1cc([C@@H](C)Nc2ccccc2C(=O)O)c2nc(N3CCC(F)(F)CC3)c(C#N)c(=O)n2c1 | Tyrosine-protein kinase ZAP-70 (ZAP70, Homo sapiens, UniProt P43403) | binding |  | competition with immobilised ligand | 10 µM | remaining binding | 100% |
| COc1cc(-c2cncc3c2CN(C)Cc2cc(N4CCNCC4)ccc2-3)cc(OC)c1OC | Casein kinase I isoform delta (CSNK1D, Homo sapiens, UniProt P48730) | enzyme activity | inhibitor |  | 1 µM | remaining activity | 107% |
